Measured values gathered from unrelated publications.
A part holds a random share of what one study measured. Substitutions count along the parent as printed.

Sample 1
Target: Ras GTPase-activating protein-binding protein 1, RRM domain (G3BP1, Homo sapiens, UniProt Q13283)
Chain of UniProt Q13283 (whole entry, looked up): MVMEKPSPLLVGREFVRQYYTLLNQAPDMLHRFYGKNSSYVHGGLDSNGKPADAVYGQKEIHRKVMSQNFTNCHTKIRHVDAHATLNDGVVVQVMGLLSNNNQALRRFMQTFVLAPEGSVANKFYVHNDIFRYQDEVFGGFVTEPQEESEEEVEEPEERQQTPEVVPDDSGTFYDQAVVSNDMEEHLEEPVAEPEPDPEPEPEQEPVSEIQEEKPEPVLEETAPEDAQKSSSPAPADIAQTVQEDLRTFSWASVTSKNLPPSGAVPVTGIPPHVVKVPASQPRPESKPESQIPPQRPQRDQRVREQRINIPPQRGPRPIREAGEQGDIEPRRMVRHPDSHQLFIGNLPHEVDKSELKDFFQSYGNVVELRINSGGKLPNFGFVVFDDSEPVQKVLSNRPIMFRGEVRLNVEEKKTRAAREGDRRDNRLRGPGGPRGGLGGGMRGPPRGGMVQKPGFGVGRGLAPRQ
Technique: RNA Bind-n-Seq
Molecule type: RNA
Medium: in vitro
Tested at: 1 µM
Notes: whole 134-nt RNA, ends assumed
Added: 150 mM KCl
Reference: input library
Reading: higher = stronger binding
Sequence	log2 enrichment
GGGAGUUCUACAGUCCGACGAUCUCCUGUGCUACACAUCGUAUGUACCGAAUCGGGUUUUUUUGGGAAAGGGAAAAAAAGGGAAAGUAUUAUGUUACGCCGUUCGGAUCUGCAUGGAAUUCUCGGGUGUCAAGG	-0.0449
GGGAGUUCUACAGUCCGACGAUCUAACUUUAGAGGAGGAUCUGAUGGAUAUGGCAGUGGACGUGGAUUUGGGGAUGGCUAUAAUGGGUAUGCAGGAGGACCUGGAGGUGGCAAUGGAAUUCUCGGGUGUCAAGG	-0.458
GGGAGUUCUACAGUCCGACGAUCUGGCCCUGGUGGCAUGCGGGGAGGAAGAGGUGGCCUUAUGGAUCGUGGUGGUCCCGGUGGAAUGUUCAGAGGUGGCCGUGGUGGAGACAGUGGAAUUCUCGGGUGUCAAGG	1.02
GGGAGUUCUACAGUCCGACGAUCCCUGUGCUACACAUCGUAUGUACCGAAUCGGGGAAAAAAAGGGGAAAGGGGAAAAAGGGGAAAGUAUUAUGUUACGCCGUUCGGAUCUGCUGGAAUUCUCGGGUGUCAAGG	0.778
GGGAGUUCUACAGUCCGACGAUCACCAUGCAGGUGGGCAUCUUUGGGAAGUGGGGCAAGGGAAAGAUAGGGAGGGGGGUAACACUUUGGGAACAGGUGGUCCCAGGUCGUUUCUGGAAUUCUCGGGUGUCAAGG	-0.358
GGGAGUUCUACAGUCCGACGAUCAGUCCUGUGCUACACAUCGUAUGUACCGAAUCGGGAAAAAGGAAAAAGGGGAAAAAGGAAAGUAUUAUGUUACGCCGUUCGGAUCUGCACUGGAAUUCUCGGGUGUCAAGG	0.00432

Sample 2
Target: Centromere-binding protein 1, full length, N-terminal tag (CBF1, Saccharomyces cerevisiae, UniProt P17106, residues 1-351)
Chain of UniProt P17106 (whole entry, looked up): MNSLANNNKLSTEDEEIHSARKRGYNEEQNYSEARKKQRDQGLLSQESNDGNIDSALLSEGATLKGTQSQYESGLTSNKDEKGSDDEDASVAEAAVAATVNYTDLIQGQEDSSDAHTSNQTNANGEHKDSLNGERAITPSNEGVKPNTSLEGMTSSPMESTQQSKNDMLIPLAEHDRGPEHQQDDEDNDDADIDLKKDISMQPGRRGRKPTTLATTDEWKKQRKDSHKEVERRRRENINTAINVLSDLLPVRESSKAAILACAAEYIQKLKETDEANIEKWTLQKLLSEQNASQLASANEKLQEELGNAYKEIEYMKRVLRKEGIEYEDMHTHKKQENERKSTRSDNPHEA
Technique: protein-binding microarray
Molecule type: double-stranded DNA, one strand shown
Medium: in vitro
Tested at: 0.8 µM
Notes: whole 60-bp probe, no competitor
Reading: higher = stronger binding
Sequence	fluorescence intensity [a.u.]
CTATTTTCGTTATCGCGTGGCACGATATCATGCTTCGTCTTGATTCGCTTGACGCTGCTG	989
GAAGCGTTTGATCATCTGACCTTTATGATTTTGTAGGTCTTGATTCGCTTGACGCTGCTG	2870
CTAGCTTCCAAACATCAGCTTTCGTTTTAACATTTCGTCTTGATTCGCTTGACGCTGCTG	513
CTAACCCTAAACCATCAGCGGCTATTATTAACATTCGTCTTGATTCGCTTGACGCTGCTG	495
GAAGACCTAAACAACCACACGGGGTTAAGCAAGTAGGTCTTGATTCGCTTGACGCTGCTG	545
CTAATACAAAACGGCCACGAGTTTCAATCCCAGTTCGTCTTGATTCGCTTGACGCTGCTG	563

Sample 3
Target: CCNB2, cyclin fold, Cln2 fusion (human)
Technique: yeast growth competition, sequencing
Medium: yeast
Notes: weak parent motif
Reference: not given
Reading: higher = stronger binding
Parent: RBL1 docking peptide (human); GSAKRRLFGEDPP
Substitution	normalised enrichment score
K4R	-0.0133
P13T	0.0355
D11W	0.658

Further values, each from its own experiment
Substance	target	assay	test system	setting	how to read	endpoint	result
PhoQ, residues 284 288 289 292 302 303 AAQSYM	PhoP, residues 12 14 15 18 19 LHSVW (Escherichia coli, UniProt P23836)	Sort-seq, refers to: YFP reporter	E. coli	PhoQ-PhoP variant library, added: 10 µM Mg2+	reference: high Mg2+ state, higher = stronger signaling	fold induction	4.36

Excerpt of the above (sample 2):
Sequence	fluorescence intensity [a.u.]
CTATTTTCGTTATCGCGTGGCACGATATCATGCTTCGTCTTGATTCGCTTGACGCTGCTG	989
